Experimental data pooled from the literature.
Every numbered part comes from another study and shows a few of its results, in no order. Changes are numbered by the printed parent chain.

Sample 1
Target: CCND1, cyclin fold, Cln2 fusion (human)
Technique: yeast growth competition, sequencing
Medium: yeast
Notes: weak parent motif
Baseline: not given
Reading: higher = stronger binding
Measurement: normalised enrichment score
Starting sequence: CUX1 docking peptide (human); SRIRRELFIEEIQ; partner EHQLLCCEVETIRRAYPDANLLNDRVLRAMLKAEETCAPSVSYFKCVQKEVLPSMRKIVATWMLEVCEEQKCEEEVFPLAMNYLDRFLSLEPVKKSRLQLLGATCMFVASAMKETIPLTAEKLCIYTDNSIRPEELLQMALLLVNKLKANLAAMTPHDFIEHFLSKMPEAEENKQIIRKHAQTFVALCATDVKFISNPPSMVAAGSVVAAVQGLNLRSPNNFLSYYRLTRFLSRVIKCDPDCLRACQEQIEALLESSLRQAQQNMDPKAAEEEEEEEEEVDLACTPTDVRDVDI
E10A: 0.286
E11A: 0.592
F8A: 0.324
F8L: -0.273
L7A: 0.33
E6A: 0.122
S1A: 0.333

Sample 2
Target: ABI1, truncated, D143A, DHFR fusion (Arabidopsis thaliana)
Technique: DHFR PCA, deep sequencing
Medium: yeast
Notes: methotrexate growth selection, single substitutions
Together with: (+)-ABA 0.0091 µM
Baseline: wild-type fitted maximum
Reading: higher = stronger binding
Measurement: relative binding score
Starting sequence: PYL1, truncated, DHFR fusion (Arabidopsis thaliana); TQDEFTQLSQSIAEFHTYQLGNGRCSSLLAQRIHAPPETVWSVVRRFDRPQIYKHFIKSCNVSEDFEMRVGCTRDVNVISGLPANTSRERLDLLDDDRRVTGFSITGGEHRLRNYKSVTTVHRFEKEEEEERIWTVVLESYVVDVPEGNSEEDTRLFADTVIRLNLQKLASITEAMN; partner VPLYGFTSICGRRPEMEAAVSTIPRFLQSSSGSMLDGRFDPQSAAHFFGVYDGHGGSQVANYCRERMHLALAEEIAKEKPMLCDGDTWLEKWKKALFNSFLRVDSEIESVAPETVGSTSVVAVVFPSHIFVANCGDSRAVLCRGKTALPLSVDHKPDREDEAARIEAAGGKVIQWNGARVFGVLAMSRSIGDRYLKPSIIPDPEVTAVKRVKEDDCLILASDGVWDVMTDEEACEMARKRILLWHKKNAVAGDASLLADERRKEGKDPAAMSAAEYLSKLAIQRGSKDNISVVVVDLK
V44C: -1.03%
A175R: 22.4%
S11P: 45.8%
V137P: -0.000385%
E139W: 2.46%
N177G: 39.9%
S59I: 13.5%
A175I: -1.37%
I162E: 2.65%
Y18N: -1.35%
D144I: -5.75%
A13P: -2.27%
G71A: -1.03%
M68F: 5.65%
V118E: -3.09%
S80H: 26.5%

Sample 3
Target: RNA binding protein fox-1 homolog 2, RRM domain, GST-SBP tag (RBFOX2, Homo sapiens, UniProt O43251-10, residues 100-194)
Technique: RNA Bind-n-Seq
Form: RNA
Medium: in vitro
Concentration: 365 nM
Notes: natural RNA segment, single round, ends assumed
Baseline: no-protein control
Reading: higher = stronger binding
Measurement: RBNS enrichment (R)
Shared flanks, not repeated: GGGAGUUCUACAGUCCGACGAUC … UGGAAUUCUCGGGUGCCAA
Construct (chain): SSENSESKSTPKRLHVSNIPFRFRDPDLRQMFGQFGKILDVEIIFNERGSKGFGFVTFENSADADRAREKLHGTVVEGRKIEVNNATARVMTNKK
GUGCUUUGCACAUAGUAGUCACUCAGUGUUUGUUAAAUAAAGCUAUUAGUGUCAUUAAAAUUCAAAAGACAGUAUAAUGUGUGUUUUUAGAUAUUUUGUGUAAAAAUUAA: 0.986
CCCAGCCCCCAGGCACAAGGGGCAGAGAGACAGGCAGUCGCCCCAGAUAGGCUCCGGGGAAGUCCAUUCCAGCUGCCACCGGCAGACAGGAGGAUAGUUGUUCUGUCUUG: 0.211
UUGUUCUGUGUACUGUAUGUGACACAAGCCUACAGGAUUUGCACUAAGAAAAGCUUGGUAGGAGCUUGCUGCUAUGGAGGAAAGAACAUAUUAAAAACUUAUUUUCCCUC: 0.521
UGCUCUUUUUUACUCAUUGAAAUGUCAUGUGUUGUCUGAUUGGCUUGUAGAAUUGUUAUAGAUUACCGUGCAUUAGCACAGAUUUUAAUUGUCAUGAUUGCAGACUACAG: 0.665
ACAUUUAGAGUUAGUAAGGGUUUUAUAUCUCUUCUGUCCAUAUUGUUUUCAAAGGAAUGAGGUGUUUAGGUGGCUGGAAAAGCAUUUGUAGGAAGUUAGAUUUGAAUAUA: 0.884
GCUAGCUCUGUCCAGAUAGGACCUGAGGAAGCCACCUUGUAGGGAGCCUUGUGUGUGGCCAGGGACACCUGGCUUCCCUCCCUACUGCCAAAUAAACCCCUAUGAACCUU: 0.289
AGAUAGUCUUGCCGCAUCUUGGCAAGUUGCAGAGAUGGUGGAGCUAGAAAAAAAAAAAAAAAAGCCCUUUUCAGUUUGUGCACUGUGUAUGGUCCGUGUAGAUUGAUGCA: 2.43
AUCGCGCUCAGGACUUCACUGAAGAUUCACGUGCAAUUGAACGCUUCAUUAAACAAAAGAAAACCUCAGUCUGCUGUCUGGGAACCCGUGGAAAGAGCUGGAAGCGGGCG: 0.899

Sample 4
Target: Prothrombin, mature alpha-thrombin (F2, Homo sapiens, UniProt P00734)
Technique: aptamer microarray, sandwich
Form: DNA with 2'F-ANA
Medium: in vitro
Concentration: 200 nM
Notes: whole 15-mer aptamer, many near background
Together with: Cy3 exosite-II aptamer, 400 nM
Reading: higher = stronger binding
Measurement: mean fluorescence intensity
Sequence: GGTTGGTGTGGTTGG
2'F-ANA at 2 5 7 10 15: 46.4 a.u.
2'F-ANA at 1 3 4 5 6 8 10 11 13: 80.4 a.u.
2'F-ANA at 4 5 9 12 13 14: 44.1 a.u.
2'F-ANA at 3 4 7 9 11 14: 340 a.u.
2'F-ANA at 1 5 7 10 11 12 14 15: 122 a.u.
2'F-ANA at 4 5 7 10 13 14 15: 43.5 a.u.
2'F-ANA at 1 3 9 11 12 13: 425 a.u.
2'F-ANA at 1 5 8 9 10 11 13 14 15: 47.9 a.u.
2'F-ANA at 1 3 6 8 9 11 13 14 15: 84.2 a.u.
2'F-ANA at 1 4 5 6 9 10 11 12 15: 49.5 a.u.
2'F-ANA at 1 4 9 10 11: 60.9 a.u.
2'F-ANA at 3 4 5 6 9 14: 49.1 a.u.
2'F-ANA at 3 6 9 11 12 14: 545 a.u.
2'F-ANA at 3 4 6 9 10 13: 243 a.u.
2'F-ANA at 1 2 5 6 7 11 15: 57.2 a.u.
2'F-ANA at 1 2 5 6 8 10: 44 a.u.
2'F-ANA at 1 2 3 4 6 7 8 12 13 15: 232 a.u.
2'F-ANA at 1 3 4 7 8 9 10 14: 91.5 a.u.
